Measurements gathered from unrelated publications.
Lines come from different studies, so protocols differ. Numbers after ± are the reported error.

Compound | conditions | DPPH radical scavenging [%]
N#C/C(=C\c1cn(-c2ccccc2)nc1-c1ccc(Br)cc1)c1nc2ccccc2[nH]1 | 100 µg/mL, 45 min | 64.3 ± 1.95
O=C(CN1CCC(O)CC1)Nc1nccs1 | 0.2 M, 1 h | 23.5
COc1cc(OC)c2c(c1)C(=O)c1cc3oc(=O)cc(-c4ccc(Cl)cc4)c3c(O)c1C2=O | 100 µg/mL | 48.6
Cc1csc(NC(=O)CN2CCC(O)CC2)n1 | 0.1 mM, 20 min | 13.5
CCCCSc1nnc(-c2ccc(N)cc2)o1 | 80 µg/mL | 89.9
COc1ccc(-c2nn(-c3ccccc3)cc2/C=C(\C#N)c2nc3ccccc3[nH]2)cc1 | 100 µg/mL, 45 min | 53.8 ± 2.13
O=C1NC2=C(C(=O)N(c3ccc(Cl)cc3)C2)C(c2ccc(O)cc2)N1 (stereo not drawn) | 100 µg/mL | 80
N#C/C(=C\c1cn(-c2ccccc2)nc1-c1ccc(Cl)cc1Cl)c1nc2ccccc2[nH]1 | 100 µg/mL, 45 min | 55.1 ± 1.65
CCOC(=O)Cc1csc(NC(=O)CCN2CCC(O)CC2)n1 | 0.2 M, 1 h | 20.6
N#C/C(=C\c1cn(-c2ccccc2)nc1-c1ccccc1)c1nc2ccccc2[nH]1 | 100 µg/mL, 45 min | 50.3 ± 1.48
Cc1cc(O)c2c(c1)C(=O)c1cc3oc(=O)cc(-c4ccccc4)c3c(O)c1C2=O | 100 µg/mL | 28.6
CCCCCCCCCCCCCCc1sc(NC(=O)CN2CCC(O)CC2)nc1-c1ccccc1 | 0.2 M, 1 h | 17.5

Repeated from above:
Compound | conditions | DPPH radical scavenging [%]
COc1cc(OC)c2c(c1)C(=O)c1cc3oc(=O)cc(-c4ccc(Cl)cc4)c3c(O)c1C2=O | 100 µg/mL | 48.6
O=C1NC2=C(C(=O)N(c3ccc(Cl)cc3)C2)C(c2ccc(O)cc2)N1 (stereo not drawn) | 100 µg/mL | 80
